Published values of several laboratories.
Numbered parts are unrelated; each lists some results of a single study.

Set 1 — technique: universal PBM; molecule type: double-stranded DNA, one strand shown; medium: in vitro; concentration: not given; reading: higher = stronger binding
Target: Sal-like protein 4, full length isoform B (SALL4, Homo sapiens, UniProt Q9UJQ4-2, residues 1-616)
Notes: 8-mer, flanks averaged, mean of replicates
Residues (chain): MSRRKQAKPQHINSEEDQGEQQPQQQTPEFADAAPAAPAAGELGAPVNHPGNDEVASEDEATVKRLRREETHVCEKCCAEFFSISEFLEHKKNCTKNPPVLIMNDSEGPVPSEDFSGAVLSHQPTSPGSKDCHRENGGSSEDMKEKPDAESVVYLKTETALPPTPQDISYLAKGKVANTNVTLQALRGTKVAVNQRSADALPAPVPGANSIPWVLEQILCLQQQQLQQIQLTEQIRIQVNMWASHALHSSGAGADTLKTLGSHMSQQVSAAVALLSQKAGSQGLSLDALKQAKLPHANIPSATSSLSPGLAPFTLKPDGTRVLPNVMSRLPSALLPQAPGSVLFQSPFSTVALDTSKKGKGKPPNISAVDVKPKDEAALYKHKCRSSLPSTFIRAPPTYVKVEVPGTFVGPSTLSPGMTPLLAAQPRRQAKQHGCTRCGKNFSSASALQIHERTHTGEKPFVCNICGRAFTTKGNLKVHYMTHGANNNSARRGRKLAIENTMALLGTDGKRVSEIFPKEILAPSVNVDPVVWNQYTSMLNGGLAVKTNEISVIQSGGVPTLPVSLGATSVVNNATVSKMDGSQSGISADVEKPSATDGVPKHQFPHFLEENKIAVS
Strand | E-score
GGAAGGCA | -0.177
CATGCGAA | 0.102
CAAGGGAA | 0.0741
GAGTGTGC | 0.0862
CTCAATAA | 0.242
CCTGTTAA | 0.0637
AGCGTAAA | 0.0787
ACGGGGGC | -0.326
CTGTAATA | 0.33
ATTTCCAG | 0.0586
TCGGCCAA | -0.155
ATACTTCC | 0.0977
ACTGCGTA | -0.237
AGCTTCCG | -0.25
TCCCTTCA | 0.0057
CGGTTATA | 0.256
GGAGTGCA | -0.126
CAACTGCC | 0.0364
AGTTATCA | 0.281
GAAGGTAC | -0.0899
ATGGTCCG | -0.156

Set 2 — technique: EMSA with sequencing; molecule type: double-stranded DNA, one strand shown; medium: in vitro; concentration: 10 and 20 nM; relative to: negative control set to 0; reading: higher = stronger binding
Target: Hepatocyte nuclear factor 3-alpha (Foxa1, Mus musculus, UniProt P35582, residues 1-468, full length assumed)
Notes: whole designed probe, mean of two concentrations, ends assumed
Shared flanks, not repeated: GTGAGCGGTGCCCATTGATGGGGAAC … TTTCACTGGGATCGTGGGGAC
Construct (chain): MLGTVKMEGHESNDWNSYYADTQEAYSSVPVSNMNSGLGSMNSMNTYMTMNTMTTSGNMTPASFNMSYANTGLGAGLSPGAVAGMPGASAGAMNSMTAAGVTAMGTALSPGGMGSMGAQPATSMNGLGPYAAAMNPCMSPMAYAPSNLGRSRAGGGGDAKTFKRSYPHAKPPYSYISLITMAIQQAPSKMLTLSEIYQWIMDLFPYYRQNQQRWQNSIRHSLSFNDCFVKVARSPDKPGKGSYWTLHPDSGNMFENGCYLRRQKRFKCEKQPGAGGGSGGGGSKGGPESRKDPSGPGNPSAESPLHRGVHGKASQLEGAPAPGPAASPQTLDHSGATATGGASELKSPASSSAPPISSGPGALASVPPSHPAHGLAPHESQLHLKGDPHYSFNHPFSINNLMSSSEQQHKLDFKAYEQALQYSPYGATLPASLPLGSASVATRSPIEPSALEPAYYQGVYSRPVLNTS
Strand | normalised bound fraction [ratio]
CACTAGCCAAGCAAATGCTACCTTTCCTAAATTACGCCGTGGTATTGTGTACGACAGCAGCAGGGTTGCTATTTTAAAATGGGATTGCGTAAAATAATCTTGTGCCCAGATGACAGGAAGTACTAAGTTGATGATTAATTGATGCTCTGGTACGGCCTCGTGCTTTCCAGTGCTTCCATTTGTGTGACGATCC | -0.056
CAGCTGGAATGCCTGGCGGAGGCTCCGGTGTCAAGAGCCTGAGAACCTGAGAACCCACCCGAGGCCCCCGCCAGGCAGCGCCGCCAGCAGATTAAATTACTCTGGGGCCCTATCTCCGCGCCATCGGGCCAGAAAATTGCCCTGGCGGGATCCAGGGAAACTGCGGTTTTTGTTATGATAGCTGGGGCAGGGA | -0.0492
CGGCAGTGGGCGTGGCTAGGTGGGGCGGGACGGAGCCGCGGCGGAGGATGGGGCGGGGTTTCATGGGGTAAGCGGGGCCGAAATAGAGCCTGTAAATTACTCTGGTTCACAGGCAGCATGTCTTTGGTTTTCTGACTACTTCTTGTCCTGTGAAGCAGCGTTGCTGCCTGCCTATTTTAAGTTAATGTTTCAA | -0.0755
CCCTTTCAGCTGACGCCGCGCCTGACGGGCCAGCCCAGACGCCGGCCTGCCCGCTGCTAATTACGAGGGCATTGTTGCTTGAGTGCTTTCTGTGTTTACATAGTTGGACAAGTCTCCCTTAATTGTCCAAAAAAAAAAAAAAAAAGGAAAAAGAAAAAGAAAATTACTAATATTTCAGAAAAAGGGCAGGCTG | 0.425
TTGAGTTGTGGGTACCATATACCCGTGTAAGTCTACATTTAACACTGAACCCTTTGTGTTGAGTACTCTGCATACAGTGTCATCATACCTTGAGTATTTACATTTAGTCATCATGTTTTCAAATAGTCCCGCCCTGCCCCTTCCCAGGACTGCAGTGATACTTACGTTAGAGCACTTGATGTTATCCCACAGG | 0.271
ATCTTCCCCCTCTTCCTTGCCCCACCAGCTCACCTACGGGGGTTATTTGCAGATAGGAAAATAAATAAAGCCGGCATTCGTTAACGCAGTTCACGCGCATACTGCTGTTTGCTCTGGATGAATCATGGTCCTTTGGCGAGGCGTGGCTCCGGGAGAGCAAAGCACCGTGTCAGGGCCATGATCCGGGGTGGCC | 0.35
ACTCGTATACTTATGTGAATGTATATATTTATGTGTTGATAAATAAAATGATACACAAAAATTAGAAAATAACATTGAAAGACTGAACATAAAAGTAAACAAGAAGAGATTAATTCTCGAATGCACAGTTTAAAAAGAATCAAAAGTATATCTTCAAGCTCCTTAGAATATAATGAAAATGGGGACTTATAAT | 0.491
GCCTAATTTGTCTCTTCCAGTAAAAGTATTTGAGAAATTTTCCATTGCCCAATACCTTCCCATGATGGAAAATACACTGCATGGAAGGTATGTGTAAATATTTGATTCGTGTTTTACTGATTTCAGTGTCACAACCTAGCAATCATTAACACTTCGAAAAACATACACCTGGTTAGTTGTTTCCAAAGTACAT | 0.146

Set 3 — technique: RNA Bind-n-Seq; molecule type: RNA; medium: in vitro; concentration: 365 nM; relative to: no-protein control; reading: higher = stronger binding
Target: RNA binding protein fox-1 homolog 2, RRM domain, GST-SBP tag (RBFOX2, Homo sapiens, UniProt O43251-10, residues 100-194)
Notes: natural RNA segment, single round, ends assumed
Shared flanks, not repeated: GGGAGUUCUACAGUCCGACGAUC … UGGAAUUCUCGGGUGCCAA
Target sequence (chain): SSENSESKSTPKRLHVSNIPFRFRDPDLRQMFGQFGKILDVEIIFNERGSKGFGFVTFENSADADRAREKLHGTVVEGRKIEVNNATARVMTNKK
Strand | RBNS enrichment (R)
UGGAUUCUCAGCUGCCUAAUCUGUACAUACCUGAUCCCUCGGGUUUUGUUUACAAGGAAUCUUGACUGACCAAAAGGCAUUGUAACUCUGCCACAGUACAAGGUACAGAG | 0.228
AGACCUACAGUUUAUGUAUACAGUUGAUUUUGAUGUAUUUAUAAAAGCUUUUUUUUCUAGAUUUGACAUUUUUCUGUAUCAUUUUACUGUAUUUUUGCAUGGUUCCUUGU | 0.737
UGCCUUCAGAUGCUCCUGGUGGUCAGCUCAACUAGCAAGACCCUAGUCCCCUGUUCCAAAGCCAUCUCAUAUGUUAGUUCUCUGUCCCAUGAAGAGGGCCGUGGUGAGUU | 0.27
AACCCCAAAUGAAACCUGGGAUUUUGAAUGUGGCUCUAAGAGUUAACAUUGCUGUCUGUAUGUCGUGUAUGCUAGGUGAUAUCCUCAGUAGGGAUUGACUACUAGACUGU | 0.801
CACCGCACACGCUGUCGUCUUUUUUUCACAAGCUCAAUUGUUACUUUUCUCUGCUUCCUCAGCCCAGGAAGAACUUGUGUUGCAUUGGCUGUGAGAGCGGGAUGGGGACG | 0.761
ACUCUGAAAUUGGUCACUUUCCUAUUACACGGAGUGUGCUAAAACUAAAAAGCAUUUUGAAACAUACAGAAUGUUCUAUUGUCAUUGGGAAAUUUUUCUUUCUAACCCAG | 0.473
GGCCCGGCGUGGGCACACAGACAGCCCGCUUUGUUCUUUCAUUUCCUCCAGCACUUUCUUUCCGCCUGAGUCCAGCCCAAGGCCUUUUAUUUUGCGCUGUGUAACUGCUG | 0.749
ACAGAUAUUUCUGAGUGGUGGAAUCAGGUUUUCUAUGUUCUGCUUUAAAGCCUGGAGUCUGUUAGAUUAACUACCAAAUAGGAAGCAGCCAUGGAGGUUAUUGCCUGCGU | 0.452
AAGGAUGCUGAGGCCUAGAGAUGGGAAGUGACUUGCUCAAGGUCACACAAUUGGAUAGUGACAUAGCUAGAGCGCAGAGUUCCUGAUUCCAAGUCACCUGUGCUUUCUGG | 0.472
UGGAGACAAGAAAAAAUAAGUAGAUCGUUUUAAUAACAAUUAUUUAAUUGCCUAUAAGUUUGCUGUUUCAGAGGCUAGCCCAAAGGCAUCAAAUUUAAUAAAGUUAAACA | 0.39
UUGAUGUUUCUCUUCUCAACCCAGCAAUGGAGAGCAGGGCUUGCAAAGCCGUACAGAGCCUACGUGCUCUUUCCUGCAAGUGGGAGAAAACUAAUCAAUGGCACACAGGG | 0.401
GUGAGGGAGGCCAGGUAGCCGAGGGAUCAGGAUGCAGGCUGCUGUACCCGCUCUGCCUCAAGCAUCCCCCACACAGGGCUCUGGUUUUCACUCGCUUCGUCCUAGAUAGU | 0.274

Set 4 — technique: RNA Bind-n-Seq; molecule type: RNA; medium: in vitro; concentration: not given; relative to: input RNA pool; reading: higher = stronger binding
Target: RING finger protein unkempt homolog, zinc fingers 1-6, GST-SBP tag (UNK, Homo sapiens, UniProt Q9C0B0, residues 30-357)
Chain of UniProt Q9C0B0 (30-357, looked up): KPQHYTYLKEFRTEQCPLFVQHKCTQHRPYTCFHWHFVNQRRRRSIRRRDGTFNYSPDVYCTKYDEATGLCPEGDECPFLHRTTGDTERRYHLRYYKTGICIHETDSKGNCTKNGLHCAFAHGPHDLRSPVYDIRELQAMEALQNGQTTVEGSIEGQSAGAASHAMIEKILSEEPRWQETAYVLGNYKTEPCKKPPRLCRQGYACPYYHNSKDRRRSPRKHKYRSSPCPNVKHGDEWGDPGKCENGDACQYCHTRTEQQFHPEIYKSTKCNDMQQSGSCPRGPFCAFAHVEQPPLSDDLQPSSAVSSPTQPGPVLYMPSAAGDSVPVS
Notes: RNA with constant flanks, human-mouse chimeric sites, ends assumed
Shared flanks, not repeated: GGGAGUUCUACAGUCCGACGAUC … CAACAGAGGAUUGAGCAUCA
Strand | bound/input enrichment [ratio]
GUAUACGGUUAUCGAGGAAAGGACUGUAGAGCGAAUGUAUACCUGCUUCCCACAGGGAAAAUAGUUUAUUUUAUCGCAUCAGUAGUAGUCCUGUUUAAUUAUGAGGAGAGGACUCAGCGA | 15.3
UCUUAACGUCCAUUUAAAACUUAUUUUUAUAGCUAGAUAAAUAUUGUUAGUCUUAGAGAGUAGUUCACAUUUUUUGAGAAGCAUGCCCUCCCUGUCCAUUUGUCUUAUAACAUGACCCAG | 28
GGACAUCUGUCAAAUUGUUAUGUUCCUGUGAAACAAGUGAGCACUUUGAUACACUUCAUUUAGUUGUACAUCUGUAUGAUAGAGAAAUGUAAAUAUGUUAAUCCAAGCAAUGUGUCACUU | 0.408
UGUAGUUUCUUGAUUUAGUGGCUGGGCCUUUUCUUUCAGAUCGUCAGGAAAAGCCUAAAGAUUAGGUUGUAAGAAAAACAGAAGCCAUGUUUCGAAGACCUGUGUUACAGGUAUUUCGUC | 0.385
GGAUUCCGCUUCCGGUUCCGUUGGGCUCGGUUCUCUCCUGAGCUACGUGUCUCUACGCUCUCAAUCCGCCAUCCAACGGCAGUCAUGCAGGUAAUGCAGUUUGUGGAGCCCAGCCGGCAG | 0.0504
AAAGUGGACUAUGGCGAGUACAUGGAUAAAAAUAAUGUGAGGCGGCAAGCAACAACAAUCAUAGCUGAUAACAUUAUAUUUCUGAGUGACCAGACAAAAGAAAAGGCAUAGAACGGAUGA | 1.59
UUUCUACUGCAGCAAACGAUGCUAAGAGUGAAGGAUCCUAAGAAGUCCCUGGAUUUUUAUACGAGGGUUCUUGGACUGACCCUCCUGCAAAAAUGUGACUUCCCUGCUAUGAAGUUCUCG | 0.183
ACACAAUAUGAGACCAACAGCAUGGACUUCAAAGUUGGGGCGGAUGGGACAGUCUUCGCCACCCGGGAGCUGCAGGUCCCCUCCGAGCAGGUGGCGUUCACGGUGACUGCAUGGGACAGC | 0.489
GCUCUUGGGAAUGUAAUCAGCGCCUUGGGGGACAAGAGCAAGAGAGCCACCCAUGUCCCUUACAGAGACUCUAAGCUAACAAGACUAUUGCAGGAUUCCCUCGGGGGUAACAGCCAAACC | 0.2
CCCUCCCCGGGCCACCCACCCCUCCCGGCUCCCCGCCGAGAUCCAGGUUUCUUCUGUUUUCAUAGCAAAUAAGAAAAAUGUUCUACGCACAUUUUGUCCUCAGUAAACGAGGGCCUCUGG | 0.44
AAAGAACCUCUCUCUGAUGAAGAUGAGGAAGACAAUGAUGAUGUUGAACCCAUUUCUGAAUUUCGAUUUGUGCCCAGUGAUAAGUCAGCGUUGGAGGCAAUGUUCACAGCAAUGUGUGAG | 0.199
